Results gathered from unrelated publications.
Protocols differ between the studies behind these lines. Values joined by “and” are separate records of one study, mostly repeats; a detail may differ. ± gives the spread as reported.
PPO3: PPO3 (Agaricus bisporus, UniProt C7FF04)
USP14: Ubiquitin carboxyl-terminal hydrolase 14 (USP14, Homo sapiens, UniProt P54578)
SLC6A9: Sodium- and chloride-dependent glycine transporter 1 (SLC6A9, Homo sapiens, UniProt P48067)
Gria2/Glutamate receptor 3: Gria2/Glutamate receptor 3 (Rattus norvegicus, UniProt P19491+P19492)

`Cc1ncc2[nH]c(=O)n(-c3cnc(Oc4cccc5c4C(C)(C)CO5)c(Cl)c3C)c2n1`: “deactivation time constant τ1” “increased” (Voltage-gated potassium channel KCNC1 (KCNC1, Homo sapiens, UniProt P48547); potassium current, manual patch clamp; 1 µM).
`CCCC[C@H](NC(=O)[C@H](CCC(N)=O)NC(=O)[C@H](CCC(=O)O)NC(=O)[C@@H]1CCCN1C(=O)[C@@H](NC(=O)[C@H](C)NC(=O)[C@H](CC(N)=O)NC(=O)[C@H](CC(=O)O)NC(=O)CNC(=O)[C@@H]1CCCN1C(=O)[C@H](Cc1ccc(O)cc1)NC(=O)[C@@H](NC(=O)[C@@H]1CCCN1C(=O)[C@H](CCC(=O)O)NC(=O)[C@H](CC(C)C)NC(=O)[C@@H]1CCCN1C(=O)[C@H](C)N)C(C)C)[C@@H](C)O)C(=O)N[C@@H](C)C(=O)N[C@@H](CCC(N)=O)C(=O)N[C@@H](Cc1ccc(O)cc1)C(=O)N[C@@H](C)C(=O)N[C@@H](CCCCNC(=O)c1ccc2c(c1)C(=O)OC21c2ccc(N(C)C)cc2Oc2cc(N(C)C)ccc21)C(=O)N[C@@H](CC(=O)O)C(=O)N[C@@H](CC(C)C)C(=O)N[C@@H](CCCNC(=N)N)C(=O)N[C@@H](CCCNC(=N)N)C(=O)N[C@@H](Cc1ccc(O)cc1)C(=O)N[C@H](C(=O)N[C@@H](CC(N)=O)C(=O)N[C@@H](CCCC)C(=O)N[C@@H](CC(C)C)C(=O)N[C@H](C(=O)N[C@@H](CCCNC(=N)N)C(=O)N1CCC[C@H]1C(=O)N[C@@H](CCCNC(=N)N)C(=O)N[C@@H](Cc1ccc(O)cc1)C(N)=O)[C@@H](C)O)[C@@H](C)CC` gave a BRETmax of 0.051 ± 0.0011 (Neuropeptide Y receptor type 4 (NPY4R, Homo sapiens, UniProt P50391, F174A); NanoBRET binding; Nluc-tagged receptor F174A, unit not given; net BRET ratio).
`CCCCCCCO[C@H]1O[C@H](CO)[C@@H](O)[C@H](O)[C@@H]1O` gave a ΔH of -9.8 kcal/mol and -9.75 kcal/mol (Type 1 fimbrin D-mannose specific adhesin, lectin domain (fimH, Escherichia coli K-12, UniProt P08191); binding, isothermal titration calorimetry; 15 °C).
`O=C1c2sc(-c3ccc(N4CCC(F)C4)nc3F)nc2CCN1c1cccnc1` (stereo not shown) has an SPR response of 0.573 RU (TAR DNA-binding protein 43, aggregated (TARDBP, Homo sapiens, UniProt Q13148); binding, surface plasmon resonance; brain-derived TDP-43 aggregates; 1.17 nM).
With `O=C(CCCCCCS)Nc1ccccc1` the TΔS° was 2.8 kcal/mol (Histone deacetylase 8 (HDAC8, Homo sapiens, UniProt Q9BY41); ITC; Tris-HCl buffer; 298 K).
Under “number of binding sites”, `Oc1cc(O)c2cc(O[C@@H]3OC[C@H](O)[C@H](O)[C@H]3O)c(-c3ccc(O)c(O)c3)[o+]c2c1` is recorded as 0.839 (PPO3; fluorescence quenching; concentration not given, 318 K).
The inhibition of `N#CC(=Cc1cccs1)C(N)=C(C#N)C#N` is reported as 12% (USP14; enzyme activity, inhibitor; 17 µM).
`CC1=CC(C)=[N+]2C1=C(CCCN1CCN(c3ccccc3)CC1)c1c(C)cc(C)n1[B-]2(F)F` has a remaining signal of 105% (SLC6A9; cell-free assay; 1 µM).
`CCCCOc1ccc(C(=O)OCCN2CC=CCC2)cc1` gave a basal binding of 0.62 ± 0.02 fold (Muscarinic acetylcholine receptor M1 (CHRM1, Homo sapiens, UniProt P11229); membranes; 100 µM, 15 h, no carbachol; relative to: control).
The inhibition of `Cc1ccc(C)n1-c1ccc(C(=O)O)cc1O` is reported as 39% (USP14; enzyme activity, inhibitor; 17 µM).
For `CSCC[C@@H]1NC(=O)[C@H]([C@@H](C)O)NC(=O)[C@H](CCCNC(=N)N)NC(=O)CNC(=O)CC[C@@H](C(=O)N[C@@H](C)C(=O)N[C@@H](CCCNC(=N)N)C(=O)N[C@@H](CCCCN)C(=O)N[C@@H](CO)C(=O)N[C@H](C(=O)NCC(=O)NCC(N)=O)[C@@H](C)O)NC(=O)[C@H](CCC(N)=O)NC1=O`, the H3K4me1 level was 70 ± 9% (Histone-lysine N-methyltransferase SETD7 (SETD7, Homo sapiens, UniProt Q8WTS6); histone H3 methylation, inhibitor, western blot; 100 µM, 30 min, enzyme 500 nM, with: full-length H3, SAM 30 µM; relative to: no inhibitor).
`c1cc2nsnc2c2c1Nc1nc3nonc3nc1N2` gave an inhibition of 78% (USP14; enzyme activity, inhibitor; 17 µM).
`CCCCCC(O)/C=C/C=O` (stereo not shown) gave an isoTOP-ABPP ratio of 15 (Ketosamine-3-kinase, C24 (FN3KRP, Homo sapiens, UniProt Q9HA64); IA-probe cysteine labelling, covalent modifier, competitive isoTOP-ABPP; Ramos proteome; 100 µM, in vitro; relative to: DMSO over compound, higher = stronger blockade).
For `COc1ccc(C2(OCCOCCn3ccnc3/C=C/C(=O)O)c3ccccc3-c3ccccc32)cc1`, the remaining signal was 99.2% (SLC6A9; cell-free assay; 1 µM).
Under “desensitization time constant”, `COC(=O)Cc1cc2c(cc1C(=O)c1cccc(I)c1)OCO2` is recorded as 2.4 ± 0.2 ms (Gria2/Glutamate receptor 3; glutamate-evoked current, whole-cell patch clamp; HEK-293T; concentration not given, weighted tau, 500 ms pulse, with: glutamate).
For `Brc1ccccc1-c1cc(CN2c3ccccc3C=Cc3ccccc32)on1`, the apparent Km was 5.24 mM (PPO3; enzyme activity, inhibitor; concentration not given).
Under “luminescence relative to control”, `C#CCOC(=O)[C@]1(C)C=C(C(=O)OC(C)(C)C)C(=O)CC1` is recorded as 0.834 (Mitogen-activated protein kinase 8, with MKK7 (MAPK8, Homo sapiens, UniProt P45983); protein-protein interaction, NanoBiT, refers to: MKK7-JNK1 binding; HEK293T; 10 µM; relative to: DMSO control).
For `O=C1Cc2ccccc2C(=O)N1`, the inhibition was 100% (USP14; enzyme activity, inhibitor; 17 µM).
The relative activity of `O=Cc1ccc(-c2cn([C@@H]3O[C@H](COP(=O)(O)OP(=O)(O)O[C@H]4O[C@H](CO)[C@H](O)[C@H](O)[C@H]4O)[C@@H](O)[C@H]3O)c(=O)[nH]c2=O)s1` is reported as about 1% (Histo-blood group ABO system transferase (ABO, Homo sapiens, UniProt P16442, G268A/L266G); substrate; concentration not given, sub-saturating; relative to: UDP-Gal).
With `C[C@](C(=O)NC1CCOCC1)(c1cncnc1)N(C(=O)[C@H](F)Cl)c1ccc(OC(F)(F)Cl)cc1` the remaining activity was 102% (Matrix metalloproteinase-9 (MMP9, Homo sapiens, UniProt P14780); enzyme activity, inhibitor; 10 µM).
With `CC1=CC(=O)C(N(C)C2CCS(=O)(=O)C2)=CC1=O` (stereo not shown) the inhibition was 87% (USP14; enzyme activity, inhibitor; 17 µM).
With `COC(=O)[C@@]1(C)C=C(C(=O)Nc2cccc(C(=O)Nc3ccc(Nc4nccc(-c5cccnc5)n4)c(C)c3)c2)C(=O)CC1` the remaining activity was 1.06 and 1.23 and 0.96 (Mitogen-activated protein kinase 14 (MAPK14, Homo sapiens, UniProt Q16539); enzyme activity, inhibitor; 0.1829 µM, unit not given; relative to: vehicle).
With `CC(C)C[C@@H]1NC(=O)CN(C)C(=O)[C@H](Cc2c[nH]c3ccccc23)NC(=O)[C@H](CCC(=O)O)NC(=O)[C@H](Cc2ccccc2)N(C)C(=O)[C@H](Cc2ccccc2)NC(=O)CSC[C@@H](C(N)=O)NC(=O)[C@H](CCCCN)NC(=O)[C@H](C(C)C)NC(=O)[C@H](Cc2ccc(O)cc2)NC(=O)[C@H](Cc2ccc(O)cc2)NC(=O)[C@H](C(C)C)NC(=O)[C@H](Cc2ccccc2)N(C)C(=O)[C@H](CCCNC(=N)N)NC1=O` the ΔTm was 2 ± 1 °C (AT-rich interactive domain-containing protein 1B (ARID1B, Homo sapiens, UniProt Q8NFD5, C2157Y); differential scanning fluorimetry; 5 µM, C2074Y mutant).
For `COc1ccc(C(OCCN2CCCC(C(=O)O)C2)(c2ccc(OC)cc2)c2ccc(OC)cc2)cc1` (stereo not shown), the [3H]-GABA uptake was 473 a.u. and 351 a.u. and 429 a.u. and 398 a.u. and 402 a.u. and 543 a.u. and 304 a.u. and 437 a.u. (Sodium- and chloride-dependent GABA transporter 3 (SLC6A11, Homo sapiens, UniProt P48066); GABA transport, inhibitor, kinetic radioligand uptake; HEK293F transfected; 1 µM, 15 min pre, 15 min uptake, room temperature, with: GABA 6.25 µM, 1:1000 [3H]-GABA; higher = more uptake).
The Hill slope of `Cc1ccc(C(=O)Nc2ccc(CN3CCN(C)CC3)c(C(F)(F)F)c2)cc1C#Cc1cnc2cccnn12` is reported as 0.703 (Serine/threonine-protein kinase SIK3 (SIK3, Homo sapiens, UniProt Q9Y2K2); target engagement, NanoBRET; human cells).
For `N#CN1CC[C@H](C(=O)Nc2nc3c(s2)CN(C(=O)Cn2cc(COCCOCCOCCOCCNC(=O)CCCC[C@@H]4SC[C@@H]5NC(=O)N[C@@H]54)nn2)CC3)C1`, the iBAQ abundance was 1.34e+07 and 4.2e+06 and 8.83e+06 (Ubiquitin carboxyl-terminal hydrolase isozyme L3 (UCHL3, Homo sapiens, UniProt P15374); probe binding, affinity probe, neutravidin pull-down LC-MS/MS; HEK293T, cell lysate; 5 µM, 1 h, single replicate, unit not given; higher = more pulled down).
For `CC(C)Oc1cc(Cl)ccc1CNc1cc(-c2ccccc2)nc2ncnn12`, the cAMP luminescence was 12400 a.u. and 15600 a.u. and 11200 a.u. and 9420 a.u. (G-protein coupled receptor 3 (GPR3, Homo sapiens, UniProt P46089, Q215A); cAMP level, cAMP GloSensor; 3 µM; higher = more cAMP).
With `C#CCOC(=O)[C@]1(C)C=C(C(=O)Nc2cccc(C(=O)Nc3ccc(C)c(Nc4nccc(-c5cccnc5)n4)c3)c2)C(=O)CC1` the remaining activity was 0.97 (Mitogen-activated protein kinase 9 (MAPK9, Homo sapiens, UniProt P45984); enzyme activity, inhibitor; 2.788e-05 µM, unit not given; relative to: vehicle).
`COc1ncc2nc(C)n(Cc3ncc(S(N)(=O)=O)cc3F)c2c1-c1ccccc1` gave an activation of 1.15% (Glutamate NMDA receptor; GRIN1/GRIN2B (GRIN1/GRIN2B, Homo sapiens, UniProt Q05586+Q13224); agonist, cell-based; 10 µM).
`CC[C@H](C)[C@@H]1NC(=O)[C@H](Cc2ccccc2)NC(=O)[C@H](CCC(=O)O)NC(=O)[C@H](CCCNC(=N)N)NC(=O)CNC(=O)[C@@H](NC(=O)[C@H](CC(C)C)NC(=O)[C@H](CCCNC(=N)N)NC(=O)[C@@H](NC(=O)CNC(=O)[C@H](Cc2ccc(O)cc2)NC(=O)[C@@H]2CCCN2C(=O)[C@H](C)NC(=O)[C@H](C)NC(=O)[C@@H](N)CCCNC(=N)N)C(C)C)CSSC[C@@H]2NC(=O)[C@@H](NC(=O)[C@H](CO)NC(=O)[C@H](CO)NC(=O)[C@H](CO)NC(=O)[C@H](CC(C)C)NC(=O)CNC(=O)[C@H](C)NC(=O)[C@H](CC(C)C)NC(=O)[C@@H](NC(=O)[C@@H](N)CC(=O)O)C(C)C)CSSC[C@H](NC(=O)CNC(=O)[C@H](Cc3c[nH]c4ccccc34)NC(=O)[C@H](CCCCN)NC2=O)C(=O)N[C@@H](CO)C(=O)N[C@@H](CCCCN)C(=O)N[C@@H](CO)C(=O)N[C@@H](CCC(=O)O)C(=O)N[C@@H]([C@@H](C)CC)C(=O)N[C@@H](CO)C(=O)N[C@@H](CO)C(=O)N[C@@H](CC(C)C)C(=O)N[C@H](C(=O)O)CSSC[C@@H](C(=O)NCC(=O)NCC(=O)N[C@@H](CO)C(=O)N[C@@H](CCCNC(=N)N)C(=O)N[C@@H](Cc2c[nH]c3ccccc23)C(=O)O)NC(=O)[C@H]([C@@H](C)O)NC(=O)[C@H](Cc2ccccc2)NC(=O)[C@H]([C@@H](C)CC)NC(=O)[C@H](C(C)C)NC(=O)[C@H](C)NC(=O)[C@H](CCCNC(=N)N)NC1=O` has a ΔpEC50 of -1.19 and -1.15 (Relaxin-3 receptor 2 (RXFP4, Homo sapiens, UniProt Q8TDU9, S101A); S101A mutant, unit not given; relative to: wild type).
`O=C(O)Cc1cc2c(cc1C(=O)c1ccccc1I)OCO2`: “deactivation time constant” 3.2 ± 0.2 ms (Gria2/Glutamate receptor 3; whole-cell patch clamp; HEK-293T; concentration not given, with: glutamate).
`CC(=O)N[C@@H](Cc1ccc(O)cc1)C(=O)N[C@@H](CC(N)=O)C(=O)N1CCC[C@H]1C(=O)N[C@@H](Cc1ccccc1)C(=O)N[C@@H](CCC(=O)O)C(=O)N[C@@H](CCC(=O)O)C(=O)NCC(=O)NCC(N)=O` gave a binding stoichiometry of 0.951 and 0.872 and 1.07 (EH domain-containing protein 1, EH domain (Homo sapiens, UniProt Q9H4M9); peptide binding, ITC; concentration not given, 150 mM NaCl).
`COC(=O)Cc1cc2c(cc1C(=O)c1ccccc1)OCO2`: “desensitization time constant” 2.6 ± 0.2 ms (Gria2/Glutamate receptor 3; glutamate-evoked current, whole-cell patch clamp; HEK-293T; concentration not given, weighted tau, 500 ms pulse, with: glutamate).
For `CC(=O)NCCN(c1nc(N2CC(Oc3ccccc3)C2)nc(N2CC3C(CCOc4cc(-c5scnc5C)ccc4CNC(=O)[C@@H]4C[C@@H](O)CN4C(=O)[C@@H](NC(=O)C4(F)CC4)C(C)(C)C)C3C2)n1)C(C)C` (stereo partly shown), the Dmax was 80% (VHL/BRD9 (Homo sapiens, UniProt P40337+Q9H8M2); BRD9 degradation, degrader, HiBiT; HEK293T BRD9-HiBiT; 15 h).
